# Literature values as cited in several papers.
# Each numbered part shows a few of the values that one paper quotes. pIC50: −log10 of the molar value.

# Sample 1
# Organism: Toxoplasma gondii
# Read-out: parasite growth
# Concentration: concentration not given
# Setting: published screen
SMILES,activity class
CCC1=C(C)CN(C(=O)NCCc2ccc(S(=O)(=O)NC(=O)N[C@H]3CC[C@H](C)CC3)cc2)C1=O,inactive
COc1cccc2c1C(=O)c1c(O)c3c(c(O)c1C2=O)C[C@@](O)(C(=O)CO)C[C@@H]3O[C@H]1C[C@H](N)[C@H](O)[C@H](C)O1,inactive
CC[C@]1(O)C[C@H]2CN(CCc3c([nH]c4ccccc34)[C@@](C(=O)OC)(c3cc4c(cc3OC)N(C=O)[C@H]3[C@@](O)(C(=O)OC)[C@H](OC(C)=O)[C@]5(CC)C=CCN6CC[C@]43[C@@H]65)C2)C1,inactive

# Other studies, line by line
SMILES,target or system,assay,test system,conditions,quantity,result
O=C(Cc1ccccc1)Nc1nnc(N2CC[C@@H]3[C@H]2CN3c2cccnn2)s1,GLS2,enzyme activity,,,pIC50,< 4.52
C[C@@H](c1ccc2nccn2c1)n1nnc2ncc(-c3cnn(C)c3)nc21,U-87 MG,,,,pIC50,4.86
Cc1nc(NCc2cnccn2)ncc1C(=O)N1CCC2(CCOCC2)C1,VNN1 (human),enzyme activity,,,pIC50,4.75
COc1c(OCCCN2CCOCC2)ccc2c1N=C(NC(=O)c1cnc(N)nc1)N1CCN=C21,,,relapsed indolent NHL patients,"dose not given, together with: rituximab",patients with dose interruption,75.2%
CC(=O)N1CCC(c2ccc(C(=O)NC3=NCCN3)cc2C(F)(F)F)CC1,SLC9A1,cellular activity,,,pIC50,< 5.00
CC(C)(C)c1nc(-c2cccc(NS(=O)(=O)c3c(F)cccc3F)c2F)c(-c2ccnc(N)n2)s1,U-87 MG,,,,pIC50,3.42
O=C(O)[C@H]1[C@H](Cn2nnc3ccccc3c2=O)CC[C@@H]1C(=O)c1ccc(OCCC2CCOCC2)cc1,MMP12,biochemical activity,,,pIC50,10.07

# Some of these lines once more (other studies, line by line):
SMILES,target or system,assay,test system,conditions,quantity,result
O=C(O)[C@H]1[C@H](Cn2nnc3ccccc3c2=O)CC[C@@H]1C(=O)c1ccc(OCCC2CCOCC2)cc1,MMP12,biochemical activity,,,pIC50,10.07
